{"data": "Measurements of several laboratories", "KDM1A": "Lysine-specific histone demethylase 1A (KDM1A, Homo sapiens, UniProt O60341)", "Rhomboid protease AarA": "Rhomboid protease AarA (Providencia stuartii, UniProt P46116)", "note": "Each line is one published result; not all experiments were run side by side. Values joined by “and” are separate records of one study, mostly repeats; a detail may differ. ± gives the spread as reported.", "chain of UniProt P37231 (whole entry, looked up)": "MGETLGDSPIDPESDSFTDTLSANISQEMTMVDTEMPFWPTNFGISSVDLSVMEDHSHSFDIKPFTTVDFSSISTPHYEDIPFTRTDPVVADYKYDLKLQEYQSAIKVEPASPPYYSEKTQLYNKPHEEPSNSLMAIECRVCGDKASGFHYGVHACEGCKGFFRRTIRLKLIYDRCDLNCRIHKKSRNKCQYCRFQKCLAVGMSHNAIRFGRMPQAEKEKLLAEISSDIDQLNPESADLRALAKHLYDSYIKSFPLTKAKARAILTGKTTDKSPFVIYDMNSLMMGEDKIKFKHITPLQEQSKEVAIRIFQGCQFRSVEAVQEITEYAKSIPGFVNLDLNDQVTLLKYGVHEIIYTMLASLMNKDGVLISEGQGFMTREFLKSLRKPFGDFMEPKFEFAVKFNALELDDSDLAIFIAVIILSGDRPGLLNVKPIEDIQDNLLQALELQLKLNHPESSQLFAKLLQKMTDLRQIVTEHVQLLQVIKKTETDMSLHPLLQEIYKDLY", "chain of UniProt P46116 (whole entry, looked up)": "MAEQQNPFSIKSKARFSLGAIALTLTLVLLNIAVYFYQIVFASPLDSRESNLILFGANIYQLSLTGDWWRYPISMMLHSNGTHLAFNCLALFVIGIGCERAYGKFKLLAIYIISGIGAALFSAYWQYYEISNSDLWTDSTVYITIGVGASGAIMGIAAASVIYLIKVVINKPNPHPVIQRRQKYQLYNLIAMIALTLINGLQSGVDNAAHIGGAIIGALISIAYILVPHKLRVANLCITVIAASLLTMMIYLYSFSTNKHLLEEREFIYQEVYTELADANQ", "chain of UniProt P28482 (whole entry, looked up)": "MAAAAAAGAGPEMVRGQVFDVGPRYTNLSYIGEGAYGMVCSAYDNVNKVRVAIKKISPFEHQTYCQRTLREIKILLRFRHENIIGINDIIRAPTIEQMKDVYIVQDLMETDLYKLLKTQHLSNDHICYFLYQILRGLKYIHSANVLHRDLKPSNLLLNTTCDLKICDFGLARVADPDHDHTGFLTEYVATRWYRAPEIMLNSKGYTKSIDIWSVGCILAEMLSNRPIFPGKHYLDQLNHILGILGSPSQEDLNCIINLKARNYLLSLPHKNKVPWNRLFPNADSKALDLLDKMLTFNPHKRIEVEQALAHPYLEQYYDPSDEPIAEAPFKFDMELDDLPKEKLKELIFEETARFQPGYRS", "chain of UniProt O75417 (whole entry, looked up)": "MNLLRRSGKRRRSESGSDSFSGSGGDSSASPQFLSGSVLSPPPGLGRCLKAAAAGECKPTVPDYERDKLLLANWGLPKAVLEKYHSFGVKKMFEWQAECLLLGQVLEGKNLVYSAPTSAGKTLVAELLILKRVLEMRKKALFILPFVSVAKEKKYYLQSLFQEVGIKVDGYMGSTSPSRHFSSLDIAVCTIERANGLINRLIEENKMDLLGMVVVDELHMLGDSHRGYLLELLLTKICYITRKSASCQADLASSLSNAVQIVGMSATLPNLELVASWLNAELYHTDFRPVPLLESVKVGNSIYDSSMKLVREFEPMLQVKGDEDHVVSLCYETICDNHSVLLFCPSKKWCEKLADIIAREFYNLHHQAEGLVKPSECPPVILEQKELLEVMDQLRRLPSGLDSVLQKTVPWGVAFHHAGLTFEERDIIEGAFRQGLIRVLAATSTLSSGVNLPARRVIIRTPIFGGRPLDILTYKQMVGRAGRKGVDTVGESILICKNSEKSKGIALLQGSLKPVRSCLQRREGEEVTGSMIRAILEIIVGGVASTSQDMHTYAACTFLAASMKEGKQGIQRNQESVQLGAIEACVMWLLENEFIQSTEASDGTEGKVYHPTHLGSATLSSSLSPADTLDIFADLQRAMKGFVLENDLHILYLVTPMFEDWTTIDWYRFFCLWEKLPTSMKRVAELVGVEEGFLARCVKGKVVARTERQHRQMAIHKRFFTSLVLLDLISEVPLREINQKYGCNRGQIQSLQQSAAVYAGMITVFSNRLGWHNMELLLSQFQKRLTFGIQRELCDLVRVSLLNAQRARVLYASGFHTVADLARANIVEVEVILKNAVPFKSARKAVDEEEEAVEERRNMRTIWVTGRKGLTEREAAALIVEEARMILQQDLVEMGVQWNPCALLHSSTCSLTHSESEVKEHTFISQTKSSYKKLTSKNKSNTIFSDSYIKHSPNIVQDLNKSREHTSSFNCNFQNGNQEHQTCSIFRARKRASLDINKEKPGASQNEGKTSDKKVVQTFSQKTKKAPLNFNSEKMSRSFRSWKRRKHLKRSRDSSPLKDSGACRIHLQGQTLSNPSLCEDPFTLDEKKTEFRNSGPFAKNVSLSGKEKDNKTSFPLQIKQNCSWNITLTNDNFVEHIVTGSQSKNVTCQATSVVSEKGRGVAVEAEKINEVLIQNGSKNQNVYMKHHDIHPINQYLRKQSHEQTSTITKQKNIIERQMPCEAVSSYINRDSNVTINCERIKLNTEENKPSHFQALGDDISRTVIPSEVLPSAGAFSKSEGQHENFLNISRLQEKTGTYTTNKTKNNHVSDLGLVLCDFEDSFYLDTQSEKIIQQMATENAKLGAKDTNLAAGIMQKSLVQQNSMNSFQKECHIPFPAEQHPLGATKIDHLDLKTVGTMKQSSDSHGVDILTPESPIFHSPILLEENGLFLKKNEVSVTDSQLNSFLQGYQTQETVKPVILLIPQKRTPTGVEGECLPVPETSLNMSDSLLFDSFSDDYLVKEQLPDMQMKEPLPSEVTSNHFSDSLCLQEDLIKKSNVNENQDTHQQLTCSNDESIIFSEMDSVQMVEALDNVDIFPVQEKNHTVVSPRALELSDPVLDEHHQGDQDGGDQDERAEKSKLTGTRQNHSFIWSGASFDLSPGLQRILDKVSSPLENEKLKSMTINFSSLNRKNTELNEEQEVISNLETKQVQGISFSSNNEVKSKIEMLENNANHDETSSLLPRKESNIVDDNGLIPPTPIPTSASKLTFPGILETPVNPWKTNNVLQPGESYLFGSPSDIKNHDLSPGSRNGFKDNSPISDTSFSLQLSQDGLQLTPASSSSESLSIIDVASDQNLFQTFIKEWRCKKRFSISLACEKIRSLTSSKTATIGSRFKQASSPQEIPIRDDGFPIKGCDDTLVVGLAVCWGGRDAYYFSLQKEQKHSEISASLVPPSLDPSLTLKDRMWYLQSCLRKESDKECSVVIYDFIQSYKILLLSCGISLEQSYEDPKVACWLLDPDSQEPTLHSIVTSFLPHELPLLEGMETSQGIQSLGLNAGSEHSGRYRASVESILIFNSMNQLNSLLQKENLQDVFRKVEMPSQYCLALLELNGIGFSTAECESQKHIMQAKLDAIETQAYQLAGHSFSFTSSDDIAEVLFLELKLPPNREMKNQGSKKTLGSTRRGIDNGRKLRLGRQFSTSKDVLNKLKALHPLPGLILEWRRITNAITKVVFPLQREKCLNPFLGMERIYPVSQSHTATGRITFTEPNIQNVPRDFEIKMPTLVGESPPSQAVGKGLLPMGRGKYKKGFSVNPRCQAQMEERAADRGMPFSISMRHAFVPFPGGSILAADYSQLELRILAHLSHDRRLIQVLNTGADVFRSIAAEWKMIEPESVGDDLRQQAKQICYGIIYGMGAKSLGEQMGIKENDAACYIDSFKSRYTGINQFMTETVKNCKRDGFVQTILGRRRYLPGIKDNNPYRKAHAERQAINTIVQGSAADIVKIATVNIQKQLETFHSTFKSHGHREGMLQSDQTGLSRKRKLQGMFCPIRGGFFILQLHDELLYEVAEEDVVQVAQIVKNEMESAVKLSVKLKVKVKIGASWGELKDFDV", "chain of UniProt P03952 (whole entry, looked up)": "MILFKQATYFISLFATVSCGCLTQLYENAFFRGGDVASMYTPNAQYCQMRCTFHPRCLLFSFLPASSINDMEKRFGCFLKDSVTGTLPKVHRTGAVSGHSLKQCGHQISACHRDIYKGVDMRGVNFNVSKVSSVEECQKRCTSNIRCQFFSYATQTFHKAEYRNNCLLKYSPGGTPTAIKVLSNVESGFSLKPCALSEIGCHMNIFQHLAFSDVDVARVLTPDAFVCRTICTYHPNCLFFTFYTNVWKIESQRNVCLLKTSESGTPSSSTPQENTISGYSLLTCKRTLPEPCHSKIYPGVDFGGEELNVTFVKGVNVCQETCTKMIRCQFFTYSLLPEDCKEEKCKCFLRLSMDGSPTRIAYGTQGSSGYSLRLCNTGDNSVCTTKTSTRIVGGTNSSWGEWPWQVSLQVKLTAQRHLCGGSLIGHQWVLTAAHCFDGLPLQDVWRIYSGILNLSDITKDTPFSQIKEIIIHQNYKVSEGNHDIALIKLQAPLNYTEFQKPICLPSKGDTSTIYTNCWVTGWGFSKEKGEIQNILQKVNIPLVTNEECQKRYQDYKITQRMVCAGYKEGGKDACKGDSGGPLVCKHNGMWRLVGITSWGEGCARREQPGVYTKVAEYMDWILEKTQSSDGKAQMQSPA", "chain of UniProt P12295 (whole entry, looked up)": "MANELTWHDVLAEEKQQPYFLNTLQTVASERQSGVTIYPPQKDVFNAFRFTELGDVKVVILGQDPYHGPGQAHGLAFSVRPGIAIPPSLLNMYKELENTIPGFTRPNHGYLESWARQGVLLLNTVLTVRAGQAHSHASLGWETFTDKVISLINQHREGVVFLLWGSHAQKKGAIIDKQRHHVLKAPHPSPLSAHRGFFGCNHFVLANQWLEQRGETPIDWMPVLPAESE"}
{"SMILES": "O=C(Nc1ccccc1)c1cccc([C@@H]2C[C@H]2NC2CCC2)c1 (racemic)", "tested on": "KDM1A", "test": "demethylase activity, inhibitor, Amplex Red", "setting": "0.0009145 µM, with: H3K4me2 peptide", "how to read": "baseline: vehicle", "quantity": "remaining activity", "result": "106%"}
{"SMILES": "Cc1c(Cc2cccc(OC(C(=O)O)C(C)C)c2)c2ccc(C(=O)NC(C)c3cccc(C(C)(C)C)c3)cc2n1C (mixture of isomers)", "tested on": "PPARG (Homo sapiens, UniProt P37231)", "test": "ligand displacement, TR-FRET", "quantity": "IC50", "result": "0.381 µM"}
{"SMILES": "COC1CN([C@H]2CC[C@H]([C@@]3(C)Oc4c(Cl)cc(C(=O)NCc5c(SC)cc(C)[nH]c5=O)c(C)c4O3)CC2)C1", "test": "RNA-seq, measured: POLN", "test system": "human, whole blood", "setting": "dose not given, 24 h", "how to read": "baseline: pretreatment baseline", "quantity": "log2 fold change", "result": 1.04}
{"SMILES": "O=C(Nc1nncs1)c1cccc([C@@H]2C[C@H]2NC2CCC2)c1", "tested on": "KDM1A", "test": "demethylase activity, inhibitor, Amplex Red", "setting": "0.6667 µM, with: H3K4me2 peptide", "how to read": "baseline: vehicle", "quantity": "remaining activity", "result": "46.1%"}
{"SMILES": "COc1ccccc1-c1ccncc1C(=O)Nc1ccc(OCc2ccc(Cl)cc2)nn1", "tested on": "DNA polymerase theta, helicase domain (POLQ, Homo sapiens, UniProt O75417)", "test": "ATPase activity, ADP-Glo", "setting": "0.06 µM", "how to read": "baseline: 0 µM cpd", "quantity": "remaining activity", "result": "102%"}
{"SMILES": "O=C1CC(c2ccccc2)N1S(=O)(=O)c1cccc(Cl)c1 (centres unmarked)", "tested on": "Rhomboid protease AarA", "test": "substrate cleavage, gel-based", "setting": "100 µM", "how to read": "baseline: DMSO", "quantity": "remaining activity", "result": "71%"}
{"SMILES": "CCC1(O)CCCN(C(=O)c2cccc(C#N)c2)C1 (centres unmarked)", "tested on": "ung (Escherichia coli, UniProt P12295)", "test": "enzyme activity, inhibitor", "setting": "concentration not given, counter-screen", "quantity": "remaining activity", "result": "92.4 ± 3.3%"}
{"SMILES": "CC(C)[C@@H]1NC(=O)[C@H](Cc2ccccc2)NC(=O)CSC[C@@H](C(N)=O)NC(=O)[C@H](CCC(=O)O)NC(=O)[C@H](CO)NC(=O)[C@H](Cc2c[nH]c3cccc(Cl)c23)NC(=O)[C@H](C2CCCCC2)NC(=O)[C@H](C(C)C)NC(=O)[C@H](Cc2ccc(O)cc2)NC(=O)[C@H](CC(=O)O)NC(=O)[C@H](Cc2c[nH]c3ccccc23)NC(=O)[C@H](Cc2ccc(N)nc2)NC(=O)[C@H](Cc2c[nH]c3ccc(Cl)cc23)NC(=O)[C@H](CCC(=O)O)NC1=O", "tested on": "Interleukin-1 receptor-like 2 (IL1RL2, Homo sapiens, UniProt Q9HB29)", "test": "reporter gene (SEAP), inhibitor, HEK-Blue IL-36R reporter", "test system": "HEK-Blue IL-36R cells", "setting": "3.7 µM, 6 h, with: IL-36γ 1 ng/mL", "quantity": "remaining activity", "result": "22.9%"}
{"SMILES": "Cc1c(Cc2ccc(OC(C)C(=O)O)cc2)c2ccc(C(=O)N[C@@H](C)c3ccc(C4CC4)cc3)cc2n1C (some centres unmarked)", "tested on": "Peroxisome proliferator-activated receptor gamma, ligand-binding domain (PPARG, Homo sapiens, UniProt P37231)", "test": "reporter gene, luciferase reporter", "test system": "HEK293T, Gal4-PPARγ LBD", "quantity": "IC50", "result": "7.47 µM"}
{"SMILES": "Cc1cc(C(=O)Nc2nc3cccc(C)c3n2[C@H]2CCCCN(C(=O)/C=C/CN(C)C)C2)ccn1", "tested on": "CDC2-like kinase 1 (Trypanosoma brucei brucei, UniProt Q382U0)", "test": "kinase activity, ADP-Glo", "setting": "0.07812 µM", "quantity": "remaining activity", "result": "66.6%"}
{"SMILES": "O=C(Nc1cccc([C@@H]2C[C@H]2NC2CCC2)c1)c1ccccc1", "tested on": "KDM1A", "test": "demethylase activity, inhibitor", "setting": "0.6173 µM, with: H3K4me2 peptide", "quantity": "remaining activity", "result": "87.7%"}
{"SMILES": "C[C@](C(=O)NC1CCOCC1)(c1cncnc1)N(C(=O)[C@H](F)Cl)c1ccc(OC(F)(F)Cl)cc1", "tested on": "Plasma kallikrein (KLKB1, Homo sapiens, UniProt P03952)", "test": "enzyme activity, inhibitor", "setting": "10 µM", "quantity": "remaining activity", "result": "103%"}
{"SMILES": "Cc1nnc(NC(=O)c2cc([C@@H]3C[C@H]3NC3CCC3)ccc2Br)s1 (relative stereo)", "tested on": "KDM1A", "test": "demethylase activity, inhibitor, Amplex Red", "setting": "0.02743 µM, with: H3K4me2 peptide", "how to read": "baseline: vehicle", "quantity": "remaining activity", "result": "101%"}
{"SMILES": "CN(Cc1cc(C2CC2)on1)C(=O)c1cccc(-c2ccc3c(c2)CCO3)c1", "tested on": "Acetyl-CoA synthetase (Cryptococcus neoformans, UniProt J9VFT1)", "test": "enzyme activity, inhibitor, coupled pyrophosphate", "setting": "100 µM", "quantity": "remaining activity", "result": "86.2% and 88.5%"}
{"SMILES": "CC1C(=O)N(S(=O)(=O)c2ccc(C#N)cc2)C1c1ccccc1 (racemic)", "tested on": "Rhomboid protease AarA", "test": "substrate cleavage, gel-based", "setting": "100 µM", "how to read": "baseline: DMSO", "quantity": "remaining activity", "result": "57%"}
{"SMILES": "C=CC(=O)Nc1cccc(Cn2ncc3cnc(Nc4cnn(CCOC)c4)nc32)c1", "tested on": "AKT1 human", "test": "binding, KINOMEscan", "setting": "100 nM", "how to read": "lower = stronger binding", "quantity": "percent of control", "result": "100%"}
{"SMILES": "COC(=O)[C@@]1(C)C=C(C(=O)Nc2cccc(C(=O)Nc3ccc(Nc4nccc(-c5cccnc5)n4)c(C)c3)c2)C(=O)CC1", "tested on": "MAPK1 (Homo sapiens, UniProt P28482)", "test": "kinase activity, inhibitor", "setting": "0.06097 µM, unit not given", "how to read": "baseline: no inhibitor", "quantity": "remaining activity", "result": 0.947}
{"note": "Excerpt of the above:"}
{"SMILES": "Cc1nnc(NC(=O)c2cc([C@@H]3C[C@H]3NC3CCC3)ccc2Br)s1 (relative stereo)", "tested on": "KDM1A", "test": "demethylase activity, inhibitor, Amplex Red", "setting": "0.02743 µM, with: H3K4me2 peptide", "how to read": "baseline: vehicle", "quantity": "remaining activity", "result": "101%"}
{"SMILES": "CN(Cc1cc(C2CC2)on1)C(=O)c1cccc(-c2ccc3c(c2)CCO3)c1", "tested on": "Acetyl-CoA synthetase (Cryptococcus neoformans, UniProt J9VFT1)", "test": "enzyme activity, inhibitor, coupled pyrophosphate", "setting": "100 µM", "quantity": "remaining activity", "result": "86.2% and 88.5%"}
{"SMILES": "CC1C(=O)N(S(=O)(=O)c2ccc(C#N)cc2)C1c1ccccc1 (racemic)", "tested on": "Rhomboid protease AarA", "test": "substrate cleavage, gel-based", "setting": "100 µM", "how to read": "baseline: DMSO", "quantity": "remaining activity", "result": "57%"}
